Measured values collected from several papers.
Numbered parts are unrelated; each lists some results of a single study. Positions count from the first letter of the parent shown.

Set 1
Target: Interferon regulatory factor 7, full length, phosphomimetic (IRF7, Homo sapiens, UniProt Q92985, residues 1-503, S101K/S471D/S472D/S475D/S476D/S477D/S483D/S484D/S487D)
Sequence of UniProt Q92985 (whole entry, unmodified, looked up): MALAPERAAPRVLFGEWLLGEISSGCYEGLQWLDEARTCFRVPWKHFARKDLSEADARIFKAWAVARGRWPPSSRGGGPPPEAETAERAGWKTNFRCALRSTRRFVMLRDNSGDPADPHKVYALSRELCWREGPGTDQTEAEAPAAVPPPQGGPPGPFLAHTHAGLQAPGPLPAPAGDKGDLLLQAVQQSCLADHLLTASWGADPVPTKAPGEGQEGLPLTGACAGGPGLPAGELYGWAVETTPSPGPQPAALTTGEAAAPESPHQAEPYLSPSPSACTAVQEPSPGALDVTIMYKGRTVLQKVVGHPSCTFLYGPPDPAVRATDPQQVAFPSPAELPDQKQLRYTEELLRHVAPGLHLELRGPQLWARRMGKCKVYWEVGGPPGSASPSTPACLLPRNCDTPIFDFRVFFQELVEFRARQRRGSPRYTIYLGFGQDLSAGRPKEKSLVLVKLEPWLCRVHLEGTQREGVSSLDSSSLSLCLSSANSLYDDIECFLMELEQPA
Method: protein-binding microarray
Form: double-stranded DNA, one strand shown
Medium: in vitro
Concentration: 250 nM
Setting: 60-bp whole probe
With: salmon DNA 0.4 mg/ml
Reference: random background probes
Reading: higher = stronger binding
All sequences stand within: GCCTAGCAC … GTCTTGATTCGCTTGACGCTGCTG
`TTAGGTATCGGGACTCGGTTAGTGCTA` has a log fluorescence of 1.42 z-score.
`GACGGTTTCGCCTTTCGGGACGTGCTA` gave a log fluorescence of 8.34 z-score.
For `TTAGAACTGAGTCTCGGTTAGTGCTAG`, the log fluorescence was 1.35 z-score.
With `GACGGACTGCTTATCCTGACGTGCTAG` the log fluorescence was -0.615 z-score.
`AACGAACTGAGACTGGAGACGTGCTAG` has a log fluorescence of -0.236 z-score.
For `TTAGGCTTCGGGTTTCGGTTAGTGCTA`, the log fluorescence was 5.53 z-score.
`TTAGGTTTCAGTATCGGTTAGTGCTAG` has a log fluorescence of 3.3 z-score.
With `TTAGGTATGCTTTTCCTTTAGTGCTAG` the log fluorescence was 0.727 z-score.
With `GGGATAAGGACAGACACCATGTGCTAG` the log fluorescence was 0.0609 z-score.

Set 2
Target: CCNB1, cyclin fold, Cln2 fusion (human)
Method: yeast growth competition, sequencing
Medium: yeast
Setting: weak parent motif
Reference: not given
Reading: higher = stronger binding
Parent: SLBP docking peptide (human); ARYKRKLLINDFG
`ARYKRKLLINDFT [G13T]`: “normalised enrichment score” 0.435.
For `ARYKEKLLINDFG [R5E]`, “normalised enrichment score” read 0.387.
Under “normalised enrichment score”, `AAYKRKLLINDFG [R2A]` is recorded as 0.44.
`ARYKRKLLINVFG [D11V]`: “normalised enrichment score” 0.408.
Under “normalised enrichment score”, `VRYKRKLLINDFG [A1V]` is recorded as 1.01.
Under “normalised enrichment score”, `ARYKRKFLINDFG [L7F]` is recorded as 0.908.
Under “normalised enrichment score”, `ARYKRKLLINDPG [F12P]` is recorded as 0.637.
Under “normalised enrichment score”, `RRYKRKLLINDFG [A1R]` is recorded as 0.343.
`ARYKRKLLINPFG [D11P]` — result for “normalised enrichment score”: 1.03.
Under “normalised enrichment score”, `ARYKRKLLIKDFG [N10K]` is recorded as 0.2.
`ARYKAKALINDFG [R5A L7A]` — result for “normalised enrichment score”: 0.295.

Set 3
Target: RNA binding protein fox-1 homolog 2, RRM domain, GST-SBP tag (RBFOX2, Homo sapiens, UniProt O43251-10, residues 100-194)
Method: RNA Bind-n-Seq
Form: RNA
Medium: in vitro
Concentration: 365 nM
Setting: natural RNA segment, single round, ends assumed
Reference: no-protein control
Reading: higher = stronger binding
Construct (chain): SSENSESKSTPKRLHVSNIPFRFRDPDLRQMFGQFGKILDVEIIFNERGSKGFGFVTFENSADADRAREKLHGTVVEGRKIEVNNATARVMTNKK
`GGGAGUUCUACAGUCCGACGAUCGCUGUGUGAGAGCUGCAUGUGAGCCUGUGACCGUGAGCUGGGGUGAGCUGGGCCGCACCUACCCUGGGGCCCCAGGGAGCAGGACGCUCCGGGGCCCAGCACGUUGCCCUUGGAAUUCUCGGGUGCCAA`: “RBNS enrichment (R)” 20.5.
`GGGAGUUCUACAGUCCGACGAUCUGAACAGAACUGCUAUUUCCUCUAAUGAAGAAUUCUGUUUAGCUGUGGGUGUGCCGGGUGGGGUGUGUGUGAUCAAAGGACAAAGACAGUAUUUUGACAAAAUACGAAGUUGGAAUUCUCGGGUGCCAA`: “RBNS enrichment (R)” 1.17.
Under “RBNS enrichment (R)”, `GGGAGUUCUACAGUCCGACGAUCUGGAAAGUUCCCACCUCACAGGGAAUGAAACCUAGGGAACACCAGGUACUCGGCGCCCUGUGGACUGUGUGGAAACUGAUUUUUCUUUUUUCUAUACUGAAUACCCUUUGUGGAAUUCUCGGGUGCCAA` is recorded as 0.282.
`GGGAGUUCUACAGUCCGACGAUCUCUCUGCUCAAAGCUGCCUGUCUCCAGCCCAGACCUUUGCUGGGUGCACCAGAGCAUCUCAGCAGGCAGGCAUUUUGUGGCAUUUAUGGCCUGUCACUCCCUGUAUUUCUUGGAAUUCUCGGGUGCCAA`: “RBNS enrichment (R)” 0.468.
For `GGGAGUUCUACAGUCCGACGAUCCAGCACUGACCCUUUCCUAGUUUCCCUAAUGCUAUCACUUAAAUAUUACAACAAAUGGGAGGUUCUGACAUCCUAGACCAUCUCACUGAUGCGCCACCAGGAAUCCAGUCUGGAAUUCUCGGGUGCCAA`, “RBNS enrichment (R)” read 0.463.
For `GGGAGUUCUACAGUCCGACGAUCUUUUUUUUUGUAAAUGUUCUGUAAAGAAAAAAUGUACAGUAAAUAAAGUGUUUUAUUUGUAGACUGACUACGACUUUUUUCUUCAUGGUGGGAUUUGUUGCUCUACUGCCUGGAAUUCUCGGGUGCCAA`, “RBNS enrichment (R)” read 0.445.
`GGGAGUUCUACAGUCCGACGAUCGUUACAUAAAUGAGAAAAAGCUAUUAUGCUGAUGGAGCAUGCUUUUUAAAUCCUUUAAAAACACUCACCAUAUAAACUUGCAUUUGAGCUUGUGUGUUCUUUUGUUAAUGUGGAAUUCUCGGGUGCCAA` — result for “RBNS enrichment (R)”: 3.46.
`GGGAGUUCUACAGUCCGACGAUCAUACAGCACUAGUCAAGACAAUGUGAUAUCCUUCCACCUUCCCCCUUUAUUUCAAGAAAUGCAUAGAUAAGGGAGAAGAAAGGCUUCAAGGAUUCAUGGUUAAGAAGUGUUGGAAUUCUCGGGUGCCAA` — result for “RBNS enrichment (R)”: 0.686.

Further values, each from its own experiment
The fold induction of `PhoQ, residues 284 288 289 292 302 303 TSTLRA` is reported as 3.06 (PhoP, residues 12 14 15 18 19 AQALL (Escherichia coli, UniProt P23836); Sort-seq, item: YFP reporter; E. coli; PhoQ-PhoP variant library, with: 10 µM Mg2+; reference: high Mg2+ state, higher = stronger signaling).

Excerpt of the above (set 2):
`ARYKRKLLINVFG [D11V]`: “normalised enrichment score” 0.408.
Under “normalised enrichment score”, `VRYKRKLLINDFG [A1V]` is recorded as 1.01.
